Measurements collected from several papers.
Every numbered part comes from another study and shows a few of its results, in no order. “And” joins repeats or separate records; there may be more than shown.
Sequence of UniProt P08172 (whole entry, looked up): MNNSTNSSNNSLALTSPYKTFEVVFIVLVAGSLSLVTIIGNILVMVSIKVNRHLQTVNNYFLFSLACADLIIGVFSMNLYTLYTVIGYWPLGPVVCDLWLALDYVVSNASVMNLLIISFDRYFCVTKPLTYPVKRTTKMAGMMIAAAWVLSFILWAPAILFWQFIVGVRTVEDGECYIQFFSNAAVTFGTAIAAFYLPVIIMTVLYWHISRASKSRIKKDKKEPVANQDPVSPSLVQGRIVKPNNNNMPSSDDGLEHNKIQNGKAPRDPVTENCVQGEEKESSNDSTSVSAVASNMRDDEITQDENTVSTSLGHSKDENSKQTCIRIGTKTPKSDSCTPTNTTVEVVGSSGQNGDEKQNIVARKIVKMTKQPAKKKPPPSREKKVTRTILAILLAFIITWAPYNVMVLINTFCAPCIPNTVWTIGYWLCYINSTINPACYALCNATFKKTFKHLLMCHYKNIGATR
Sequence of UniProt P27361 (whole entry, looked up): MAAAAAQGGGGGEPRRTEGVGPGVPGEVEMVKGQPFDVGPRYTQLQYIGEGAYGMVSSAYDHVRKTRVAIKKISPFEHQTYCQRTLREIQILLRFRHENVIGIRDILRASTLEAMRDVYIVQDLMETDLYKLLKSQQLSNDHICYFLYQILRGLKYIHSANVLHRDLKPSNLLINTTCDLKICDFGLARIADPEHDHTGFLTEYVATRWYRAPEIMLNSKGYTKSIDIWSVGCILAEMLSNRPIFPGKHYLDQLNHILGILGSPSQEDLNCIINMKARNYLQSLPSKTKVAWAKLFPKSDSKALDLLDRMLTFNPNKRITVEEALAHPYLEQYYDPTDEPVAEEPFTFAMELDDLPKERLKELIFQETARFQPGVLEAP
Sequence of UniProt P30291 (whole entry, looked up): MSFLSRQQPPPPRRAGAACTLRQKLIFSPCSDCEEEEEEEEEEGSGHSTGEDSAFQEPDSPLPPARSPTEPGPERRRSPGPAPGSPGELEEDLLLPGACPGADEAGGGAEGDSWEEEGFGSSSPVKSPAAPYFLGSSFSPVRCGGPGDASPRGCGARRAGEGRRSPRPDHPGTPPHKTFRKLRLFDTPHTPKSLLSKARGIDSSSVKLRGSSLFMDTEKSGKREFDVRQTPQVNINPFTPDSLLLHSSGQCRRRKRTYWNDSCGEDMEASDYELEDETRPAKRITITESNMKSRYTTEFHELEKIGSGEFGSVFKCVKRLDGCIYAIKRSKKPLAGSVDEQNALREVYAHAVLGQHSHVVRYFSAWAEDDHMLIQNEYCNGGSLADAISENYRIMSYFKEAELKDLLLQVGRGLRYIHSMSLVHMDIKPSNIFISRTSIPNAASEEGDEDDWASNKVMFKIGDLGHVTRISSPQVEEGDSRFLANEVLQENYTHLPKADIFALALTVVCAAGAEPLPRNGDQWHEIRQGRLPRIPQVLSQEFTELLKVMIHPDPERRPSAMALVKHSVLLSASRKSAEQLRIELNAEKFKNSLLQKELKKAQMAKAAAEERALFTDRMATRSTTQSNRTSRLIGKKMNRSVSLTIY
Sequence of UniProt P29320 (whole entry, looked up): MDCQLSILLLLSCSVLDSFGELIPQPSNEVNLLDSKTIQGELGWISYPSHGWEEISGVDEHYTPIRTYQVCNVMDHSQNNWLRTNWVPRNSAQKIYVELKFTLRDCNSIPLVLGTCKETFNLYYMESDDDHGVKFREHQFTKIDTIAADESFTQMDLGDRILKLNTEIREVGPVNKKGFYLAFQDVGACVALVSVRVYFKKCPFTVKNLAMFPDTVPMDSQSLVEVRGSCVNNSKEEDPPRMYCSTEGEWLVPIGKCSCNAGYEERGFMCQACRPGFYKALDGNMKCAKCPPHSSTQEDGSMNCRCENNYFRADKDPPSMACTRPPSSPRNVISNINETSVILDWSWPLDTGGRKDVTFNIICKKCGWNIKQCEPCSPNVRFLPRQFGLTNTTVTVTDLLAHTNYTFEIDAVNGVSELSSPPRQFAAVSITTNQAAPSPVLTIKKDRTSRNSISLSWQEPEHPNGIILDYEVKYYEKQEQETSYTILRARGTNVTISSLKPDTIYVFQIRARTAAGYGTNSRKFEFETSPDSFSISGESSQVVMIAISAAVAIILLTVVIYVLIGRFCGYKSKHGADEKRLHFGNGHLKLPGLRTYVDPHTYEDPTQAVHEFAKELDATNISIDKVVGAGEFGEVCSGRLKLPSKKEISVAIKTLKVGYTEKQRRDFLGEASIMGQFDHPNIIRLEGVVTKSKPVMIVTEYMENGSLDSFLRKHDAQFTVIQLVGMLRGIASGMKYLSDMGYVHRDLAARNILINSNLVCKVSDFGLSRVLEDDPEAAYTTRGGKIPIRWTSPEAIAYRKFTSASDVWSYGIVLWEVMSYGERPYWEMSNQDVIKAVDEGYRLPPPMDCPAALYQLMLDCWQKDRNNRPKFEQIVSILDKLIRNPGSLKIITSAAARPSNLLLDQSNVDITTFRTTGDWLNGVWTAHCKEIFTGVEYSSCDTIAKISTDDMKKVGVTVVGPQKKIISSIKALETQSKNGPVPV
Sequence of UniProt Q9UHD2 (whole entry, looked up): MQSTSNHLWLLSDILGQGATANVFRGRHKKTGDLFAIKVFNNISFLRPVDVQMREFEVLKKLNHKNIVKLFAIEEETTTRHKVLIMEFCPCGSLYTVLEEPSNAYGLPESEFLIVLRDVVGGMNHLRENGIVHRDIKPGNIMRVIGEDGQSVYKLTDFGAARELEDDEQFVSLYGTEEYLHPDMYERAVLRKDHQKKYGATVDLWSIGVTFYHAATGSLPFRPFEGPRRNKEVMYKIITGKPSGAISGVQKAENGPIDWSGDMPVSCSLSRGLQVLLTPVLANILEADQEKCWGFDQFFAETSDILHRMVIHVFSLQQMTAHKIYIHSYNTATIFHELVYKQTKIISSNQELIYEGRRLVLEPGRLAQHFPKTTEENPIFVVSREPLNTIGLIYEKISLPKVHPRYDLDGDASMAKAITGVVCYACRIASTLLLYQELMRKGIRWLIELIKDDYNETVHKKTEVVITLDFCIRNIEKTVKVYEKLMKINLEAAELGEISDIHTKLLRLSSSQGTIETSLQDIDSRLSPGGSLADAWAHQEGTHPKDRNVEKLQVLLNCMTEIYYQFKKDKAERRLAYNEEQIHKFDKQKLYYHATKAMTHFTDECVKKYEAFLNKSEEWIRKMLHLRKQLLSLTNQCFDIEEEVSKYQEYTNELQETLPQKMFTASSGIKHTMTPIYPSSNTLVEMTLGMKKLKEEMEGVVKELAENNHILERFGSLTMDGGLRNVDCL
Sequence of UniProt P18825 (whole entry, looked up): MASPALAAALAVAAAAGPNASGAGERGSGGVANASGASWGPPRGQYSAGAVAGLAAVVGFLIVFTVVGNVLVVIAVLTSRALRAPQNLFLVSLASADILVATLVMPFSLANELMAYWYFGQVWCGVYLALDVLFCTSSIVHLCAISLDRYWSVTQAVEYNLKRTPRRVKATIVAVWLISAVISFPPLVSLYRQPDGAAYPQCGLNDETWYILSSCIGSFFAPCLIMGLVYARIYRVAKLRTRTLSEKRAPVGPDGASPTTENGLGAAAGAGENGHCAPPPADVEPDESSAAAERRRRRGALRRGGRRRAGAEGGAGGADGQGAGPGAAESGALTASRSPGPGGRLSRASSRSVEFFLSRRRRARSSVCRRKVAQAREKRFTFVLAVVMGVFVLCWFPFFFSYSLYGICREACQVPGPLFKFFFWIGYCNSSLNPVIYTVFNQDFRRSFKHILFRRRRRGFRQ
Sequence of UniProt P35348 (whole entry, looked up): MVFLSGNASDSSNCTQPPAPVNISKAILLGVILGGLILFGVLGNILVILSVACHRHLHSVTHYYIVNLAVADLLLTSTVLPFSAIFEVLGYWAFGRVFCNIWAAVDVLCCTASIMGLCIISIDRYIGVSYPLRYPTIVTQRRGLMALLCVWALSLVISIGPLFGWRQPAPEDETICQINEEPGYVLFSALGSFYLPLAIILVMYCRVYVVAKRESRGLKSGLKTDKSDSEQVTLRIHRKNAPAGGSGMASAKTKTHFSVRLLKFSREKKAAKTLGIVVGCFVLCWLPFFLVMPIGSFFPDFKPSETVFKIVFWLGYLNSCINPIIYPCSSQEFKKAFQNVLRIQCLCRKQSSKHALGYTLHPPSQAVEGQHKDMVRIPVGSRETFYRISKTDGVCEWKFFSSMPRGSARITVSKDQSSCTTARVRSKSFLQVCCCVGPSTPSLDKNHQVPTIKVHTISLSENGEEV
Sequence of UniProt Q9HC98 (whole entry, looked up): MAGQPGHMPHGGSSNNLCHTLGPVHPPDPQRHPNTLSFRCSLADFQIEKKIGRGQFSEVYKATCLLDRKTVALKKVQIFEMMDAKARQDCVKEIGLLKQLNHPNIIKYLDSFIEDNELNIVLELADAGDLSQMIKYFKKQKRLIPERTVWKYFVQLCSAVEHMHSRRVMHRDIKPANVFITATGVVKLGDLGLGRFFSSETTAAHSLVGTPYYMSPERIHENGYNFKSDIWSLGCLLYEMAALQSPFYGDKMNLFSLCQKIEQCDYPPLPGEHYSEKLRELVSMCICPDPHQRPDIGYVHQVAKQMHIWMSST

Sample 1 — SMILES: Clc1ccc(Nc2nnc(Cc3ccncc3)c3ccccc23)cc1; observed: enzyme activity; mode: inhibitor; tested at: 0.5 µM; reference: control
MAP3K14 (Homo sapiens, UniProt Q99558) — remaining activity: 126%.
For WEE1 (Homo sapiens, UniProt P30291): remaining activity read 109%.
For ARAF (Homo sapiens, UniProt P10398): remaining activity read 97.6%.
JAK3 (Homo sapiens, UniProt P52333) — remaining activity: 92.1%.
The remaining activity was 75.3% (NEK1 (Homo sapiens, UniProt Q96PY6)).
The remaining activity was 101% (MAP3K5 (Homo sapiens, UniProt Q99683)).
FRK (Homo sapiens, UniProt P42685) — remaining activity: 95.4%.
For EPHA3 (Homo sapiens, UniProt P29320): remaining activity read 98.8%.
For ULK2 (Homo sapiens, UniProt Q8IYT8): remaining activity read 99.9%.
It gave 87% for remaining activity (LCK (Homo sapiens, UniProt P06239)).
It gave 98.2% for remaining activity (CSNK1G2 (Homo sapiens, UniProt P78368)).
For TEK (Homo sapiens, UniProt Q02763): remaining activity read 97.5%.
The remaining activity was 104% (GSK3B (Homo sapiens, UniProt P49841)).
FGFR3 (Homo sapiens, UniProt P22607) — remaining activity: 91.5%.
For MAPK3 (Homo sapiens, UniProt P27361): remaining activity read 94.7%.
For CSNK1G3 (Homo sapiens, UniProt Q9Y6M4): remaining activity read 100%.
The remaining activity was 97.5% (RPS6KA2 (Homo sapiens, UniProt Q15349)).
MAP2K2 (Homo sapiens, UniProt P36507) — remaining activity: 100%.
TAOK2 (Homo sapiens, UniProt Q9UL54) — remaining activity: 85.4%.
It gave 93.3% for remaining activity (NEK6 (Homo sapiens, UniProt Q9HC98)).
MERTK (Homo sapiens, UniProt Q12866) — remaining activity: 116%.
It gave 104% for remaining activity (TBK1 (Homo sapiens, UniProt Q9UHD2)).
GRK7 (Homo sapiens, UniProt Q8WTQ7) — remaining activity: 92.2%.

Sample 2 — method: Phase 2a trial; host: idiopathic pulmonary fibrosis patients
SMILES: CC(C)n1cnc(-c2ccc(F)cc2)c1-c1ncc(C(=O)Nc2ccc(N3CCN(C)CC3)cc2)[nH]1
measured: back pain; 30 mg once daily, grade 3 maximum intensity — “patients with adverse events”: 0%.
For measured: reticulocyte count increased; 30 mg once daily, grade 3 maximum intensity: “patients with adverse events” read 0%.
measured: tri-iodothyronine increased; 60 mg once daily, grade 2 maximum intensity — “patients with adverse events”: 0%.
measured: muscular weakness; 30 mg once daily, grade 3 maximum intensity — “patients with adverse events”: 0%.

Sample 3 — method: Incucyte 3D growth; tested at: 30 µM; reading: higher = more growth
Structure (SMILES): CC(C)(C(=O)O)[C@H](NC(=O)Cc1cccc(I)c1)c1ccc2oc(=O)[nH]c2c1
The spheroid area was 3.99e+08 a.u. and 3.71e+08 a.u. and 3.79e+08 a.u. and 3.84e+08 a.u. and 3.6e+08 a.u. (PC-9; 42 h).
For NCI-H1437; 174 h: spheroid area read 5.29e+07 a.u. and 5.93e+07 a.u. and 3.45e+07 a.u. and 3.18e+07 a.u. and 3.96e+07 a.u. and 3.93e+07 a.u.
The spheroid area was 2.04e+07 a.u. and 1.31e+07 a.u. and 2.09e+07 a.u. and 2.51e+07 a.u. and 1.02e+07 a.u. and 2.03e+07 a.u. (A375; 42 h).
A375; 24.52 h — spheroid area: 1.43e+07 a.u. and 1.54e+07 a.u. and 1.06e+07 a.u. and 1.66e+07 a.u. and 1.24e+07 a.u. and 1.13e+07 a.u.
The spheroid area was 6.1e+06 a.u. and 6.44e+06 a.u. and 5.95e+06 a.u. and 6.07e+06 a.u. and 7.66e+06 a.u. and 7.46e+06 a.u. (NCI-H358; 162 h).
A375; 354.52 h — spheroid area: 1.7e+08 a.u. and 1.64e+08 a.u. and 1.94e+08 a.u. and 1.84e+08 a.u. and 1.61e+08 a.u.

Sample 4 — mode: inhibitor; tested at: 10 µM; reference: control
Target: Diamine acetyltransferase 1 (Homo sapiens, UniProt P21673)
Residues (P21673 1-171): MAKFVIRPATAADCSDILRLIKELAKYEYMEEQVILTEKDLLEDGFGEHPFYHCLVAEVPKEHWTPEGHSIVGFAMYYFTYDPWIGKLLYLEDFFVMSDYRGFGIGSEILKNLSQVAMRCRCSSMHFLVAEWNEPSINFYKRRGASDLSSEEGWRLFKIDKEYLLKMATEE
`O=c1c(-c2ccc(O)cc2)coc2c([C@@H]3O[C@H](CO)[C@@H](O)[C@H](O)[C@H]3O)c(O)ccc12` gave a remaining activity of 86.5%.
The remaining activity of `CCCCCCCCCCCCCCCCCCCCCCCCCCCCO` is reported as 101%.
For `CC1CC[C@@]2(OC1)O[C@H]1C[C@H]3[C@@H]4CCC5CC(O)CC[C@]5(C)[C@H]4CC[C@]3(C)[C@H]1[C@@H]2C` (stereo partly shown), the remaining activity was 88.3%.
For `c1cc2c(cc1O[C@H]1OC[C@H]3[C@@H]1CO[C@@H]3c1ccc3c(c1)OCO3)OCO2`, the remaining activity was 99.9%.
With `O=C1C[C@@H](c2ccccc2)Oc2cc(O)cc(O)c21` the remaining activity was 92.6%.
`COc1cc(O)c2c(c1)C(=O)c1cc(C)cc(O[C@@H]3O[C@H](CO)[C@@H](O)[C@H](O)[C@H]3O)c1C2=O` gave a remaining activity of 93.6%.

Sample 5 — observed: enzyme activity; mode: inhibitor; tested at: 10 µM
Target: Calcium/calmodulin-dependent protein kinase type II subunit alpha (CAMK2A, Homo sapiens, UniProt Q9UQM7)
Sequence of UniProt Q9UQM7 (whole entry, looked up): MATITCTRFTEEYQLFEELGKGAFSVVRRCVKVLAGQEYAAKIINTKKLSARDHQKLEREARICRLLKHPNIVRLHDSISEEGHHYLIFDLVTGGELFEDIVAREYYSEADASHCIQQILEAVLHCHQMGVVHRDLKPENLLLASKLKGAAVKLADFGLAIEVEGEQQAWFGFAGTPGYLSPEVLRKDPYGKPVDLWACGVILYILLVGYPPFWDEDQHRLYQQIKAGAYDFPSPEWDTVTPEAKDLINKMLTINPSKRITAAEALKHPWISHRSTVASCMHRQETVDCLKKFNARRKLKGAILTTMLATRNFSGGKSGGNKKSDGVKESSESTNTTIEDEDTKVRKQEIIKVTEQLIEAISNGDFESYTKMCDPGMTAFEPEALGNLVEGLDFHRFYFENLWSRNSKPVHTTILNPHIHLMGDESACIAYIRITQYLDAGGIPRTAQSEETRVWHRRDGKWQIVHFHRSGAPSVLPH
With `CN(C)C` the inhibition was -13%.
The inhibition of `CCCCCCCCC=O` is reported as -8%.
For `C[C@@H](O)[C@H]1C(=O)N2C(C(=O)O)=C(S[C@@H]3CN[C@H](C(=O)Nc4cccc(C(=O)O)c4)C3)[C@H](C)[C@H]12`, the inhibition was -18%.
With `CC(C)=CCC[C@@](O)(CO[C@@H]1O[C@H](CO)[C@@H](O)[C@H](O)[C@H]1O)[C@H]1CC[C@]2(C)[C@@H]1CC[C@@H]1[C@@]3(C=O)CC[C@H](O[C@@H]4OC[C@H](O)[C@H](O[C@@H]5OC[C@@H](O)[C@H](O)[C@H]5O)[C@H]4O[C@@H]4O[C@@H](C)[C@H](O)[C@@H](O)[C@H]4O)C(C)(C)[C@@H]3CC[C@]12C` the inhibition was 28%.

Sample 6 — observed: cell-free assay; tested at: 10 µM
Structure (SMILES): CS(=O)(=O)c1cc(C2(NC(=O)c3cncc4c3cnn4-c3ccc(F)cc3)CC2)ccn1
For CHRM4 (Homo sapiens, UniProt P08173): inhibition read 13.3%.
The inhibition was -12.6% (DRD1 (Homo sapiens, UniProt P21728)).
It gave -7.71% for inhibition (ADRA1A (Homo sapiens, UniProt P35348)).
CHRM2 (Homo sapiens, UniProt P08172) — inhibition: -15.9%.
DRD3 (Homo sapiens, UniProt P35462) — inhibition: 17.6%.
It gave -6.8% for inhibition (ADRA2C (Homo sapiens, UniProt P18825)).

Repeated from above (sample 1):
It gave 87% for remaining activity (LCK (Homo sapiens, UniProt P06239)).
It gave 98.2% for remaining activity (CSNK1G2 (Homo sapiens, UniProt P78368)).
For TEK (Homo sapiens, UniProt Q02763): remaining activity read 97.5%.
The remaining activity was 104% (GSK3B (Homo sapiens, UniProt P49841)).
FGFR3 (Homo sapiens, UniProt P22607) — remaining activity: 91.5%.
For MAPK3 (Homo sapiens, UniProt P27361): remaining activity read 94.7%.
